# Measured values collected from several papers.
# Each line is one published result; not all experiments were run side by side. ± gives the spread as reported.
Structure (SMILES),test,system,setting,scale,endpoint,result
CN[C@H]1C(=O)N[C@@H]2Cc3ccc(cc3)Oc3cc4cc(c3O[C@@H]3O[C@H](C(=O)O)[C@@H](O)[C@H](O)[C@H]3NC(=O)CCCCCCCCC(C)C)Oc3ccc(cc3Cl)[C@@H](O)[C@@H]3NC(=O)[C@H](NC(=O)[C@@H]4NC(=O)[C@@H](NC2=O)c2cc(cc(O)c2Cl)Oc2cc1ccc2O)c1ccc(O)c(c1)-c1c(O[C@H]2O[C@H](CO)[C@@H](O)[C@H](O)[C@@H]2O)cc(O)cc1[C@@H](C(=O)NCCCN(C)C)NC3=O,,"healthy Japanese subjects, plasma","intravenous infusion, 500 mg, 30 min infusion",,clearance,42.2 mL/h
CNCc1ccc(-c2[nH]c3cc(F)cc4c3c2CCNC4=O)cc1,,"human, plasma","oral, 40 mg once daily, 24 h, steady state, mean",,AUC(0-t),1050 ng·h/mL
CC1=NS(=O)(=O)c2cc(Cl)ccc2N1,"cytochrome c release, ELISA",BALB/cByJ female mouse liver mitochondria,30 min,reference: alamethicin maximal release,EC20,> 200 µM
CCCCC[C@H](O)CC[C@@H]1[C@H]2Cc3cccc(OCC(=O)O)c3C[C@H]2C[C@H]1O,LC-MS/MS,"Japanese pulmonary arterial hypertension patients, plasma","inhalation, 54 µg four times daily, week 12",,Clast,0.02 ± 0.02 ng/mL
CC(C)C[C@H](NC(=O)[C@@H](Cc1c[nH]c2ccccc12)NC(=O)[C@H](Cc1ccc(O)cc1)NC(=O)[C@H](CO)NC(=O)[C@H](Cc1c[nH]c2ccccc12)NC(=O)[C@H](Cc1c[nH]cn1)NC(=O)[C@@H]1CCC(=O)N1)C(=O)N[C@@H](CCCNC(=N)N)C(=O)N1CCC[C@H]1C(=O)NCC(N)=O,LC-MS/MS,Sprague-Dawley rat skin homogenate,"5 min, pH 7.4, 37 °C",,degradation,26.2 ± 5.74%
CCCCNC(=O)CN1CCN(CC(=O)[O-])CCN(CC(=O)[O-])CCN(CC(=O)[O-])CC1.[67Ga+3],RP-TLC,murine plasma,"24 h, 37 °C, 5% CO2",,intact radiolabelled complex,83.9 ± 0.5%
Cc1nc(Nc2ncc(C(=O)Nc3c(C)cccc3Cl)s2)cc(N2CCN(CCO)CC2)n1,mitochondrial swelling,BALB/cByJ female mouse liver mitochondria,"30 min, added: succinate + rotenone",reference: CaCl2 maximal swelling,EC20,127 µM
CCCC[C@H](NC(C)=O)C(=O)N[C@H]1CCC(=O)NC[C@@H](C(=O)N[C@@H](Cc2c[nH]c3ccccc23)C(N)=O)NC(=O)[C@H](CCCNC(=N)N)NC(=O)[C@@H](Cc2ccccc2)NC(=O)[C@H](Cc2c[nH]cn2)NC1=O,,"beagle dog, female, plasma","subcutaneous, 8.0 mg/kg daily, day 28",,Cmax,389 ng/mL
O=C(O)c1cccc(CN2CN(C3CCCCC3)C3(CCN(CCCC(=O)c4ccccc4)CC3)C2=O)c1,,rat Sprague Dawley female,"300 mg/kg/day, 4 to 8 min after start, first session",,rearing activity,2 counts
CN1CC[C@@H](NC(=O)Nc2ccc(C#N)cc2)C[C@@H]1c1nc2ccccc2[nH]1,,"moderate hepatic impairment, plasma","oral, 100 mg single dose, fasted, arithmetic mean",,"AUC(0-t), unbound",1020 ± 278 ng·h/mL
CN(CCC#N)C1CCN(C(=O)Cn2cc(NC(=O)c3cnn4cccnc34)c(-c3cc(Cl)ccc3OC(F)F)n2)CC1,gamma scintigraphy,human,"inhalation, 1 mg, 99mTc-labelled",reference: emitted dose,"oropharyngeal, stomach and mouth deposition",49.1%
Cc1cc(NS(=O)(=O)c2ccc(N)cc2)no1,mitochondrial swelling,BALB/cByJ female mouse liver mitochondria,"30 min, added: succinate + rotenone",reference: CaCl2 maximal swelling,EC20,> 400 µM
COc1cccc(-c2ccc(NC(=O)C3=C(C(=O)O)CCC3)c(F)c2)c1,,"human, male, fasted, plasma","oral, 30 mg, single dose, geometric mean",,AUC(0-24h),64500 ng·h/mL
O=c1[nH]c(=O)c(Cc2cccc(C(F)(F)F)c2)c([C@H]2CC[C@H](c3ccccc3)CC2)[nH]1,,"human, plasma","oral, 450 mg once daily, day 14, geometric mean",,AUC(0-tau),5700 ng·h/mL
COc1cccc2c1C(=O)c1c(O)c3c(c(O)c1C2=O)C[C@@](O)(C(=O)CO)C[C@@H]3O[C@H]1C[C@H](N)[C@H](O)[C@H](C)O1,,"mouse, E0771 tumour-bearing, kidney","intravenous, 92 µmol/kg",,Tmax,30 min
